Published values of several laboratories.
Lines come from different studies, so protocols differ.

Structure (SMILES) = CNCc1ccc(-c2[nH]c3cc(F)cc4c3c2CCNC4=O)cc1; system = human, plasma; conditions = oral, 300 mg, fasted, median; Cmax = 424 ng/mL
Structure (SMILES) = CC(C)NC[C@@H](C(=O)N1CCN(c2ncnc3c2[C@H](C)C[C@H]3O)CC1)c1ccc(Cl)cc1; system = human, normal hepatic function, plasma; conditions = oral, 100 mg single dose, reference group versus Mild; how to read = reference: NCI classification; Cmax = 62.6 ng/mL
Structure (SMILES) = O=c1[nH]c(=O)c(Cc2cccc(C(F)(F)F)c2)c([C@H]2CC[C@H](c3ccccc3)CC2)[nH]1; system = human, plasma; conditions = oral, 450 mg once daily, day 1, fasted, geometric mean; Cmax = 356 ng/mL
Structure (SMILES) = CO[C@H]1C[C@@H]2CC[C@@H](C)[C@@](O)(O2)C(=O)C(=O)N2CCCC[C@H]2C(=O)O[C@H]([C@H](C)C[C@@H]2CC[C@@H](O)[C@H](OC)C2)CC(=O)[C@H](C)/C=C(\C)[C@@H](O)[C@@H](OC)C(=O)[C@H](C)C[C@H](C)/C=C/C=C/C=C/1C; system = human, whole blood; conditions = oral, 30 mg, without grapefruit juice; Cmax = 68.5 ng/mL
Structure (SMILES) = CC1=C2C[C@H]3[C@@H](CC[C@@H]4C[C@H](NS(C)(=O)=O)CC[C@@]43C)[C@@H]2CC[C@@]2(C1)O[C@@H]1C[C@H](C)CN[C@H]1[C@H]2C; system = patients, plasma; conditions = oral, 160 mg single, day -7, cycle 1; Cmax = 87.4 ng/mL
Structure (SMILES) = CS(=O)(=O)Nc1ccc(C(=O)O[C@@H](Cc2c(Cl)c[n+]([O-])cc2Cl)c2ccc(OC(F)F)c(OCC3CC3)c2)cc1OCC1CC1; system = human, plasma; conditions = inhaled, 600 µg once daily, day 7, single-dose dry powder inhaler; Cmax = 0.702 ng/mL
Structure (SMILES) = Cc1cc(Nc2cc3ncccc3c(N[C@@H]3C[C@H]4CC[C@@H](C3)N4CCC#N)n2)n[nH]1; system = beagle dog, female, plasma; conditions = oral, 10 mg/kg/day, last day of 13 weeks; Cmax = 7.37 ng/mL
Structure (SMILES) = Cc1nc2cccc(OCC(C)(C)C(=O)NC(C)C)c2c(N)c1C(=O)O; system = female Sprague-Dawley rat, plasma; conditions = oral, 100 mg/kg, single dose; Cmax = 268 ng/mL
Structure (SMILES) = CCCC[C@H](NC(C)=O)C(=O)N[C@H]1CCC(=O)NC[C@@H](C(=O)N[C@@H](Cc2c[nH]c3ccccc23)C(N)=O)NC(=O)[C@H](CCCNC(=N)N)NC(=O)[C@@H](Cc2ccccc2)NC(=O)[C@H](Cc2c[nH]cn2)NC1=O; system = CD Sprague Dawley rat, male, plasma; conditions = subcutaneous, 5.0 mg/kg daily, day 14; Cmax = 1100 ng/mL

Some of these lines once more:
Structure (SMILES) = CC1=C2C[C@H]3[C@@H](CC[C@@H]4C[C@H](NS(C)(=O)=O)CC[C@@]43C)[C@@H]2CC[C@@]2(C1)O[C@@H]1C[C@H](C)CN[C@H]1[C@H]2C; system = patients, plasma; conditions = oral, 160 mg single, day -7, cycle 1; Cmax = 87.4 ng/mL
